Measured values gathered from unrelated publications.
Parts stem from different laboratories: compare values within a part only. Positions count from the first letter of the parent shown.

Sample 1
Target: CCND3, cyclin fold, Cln2 fusion (human)
Technique: yeast growth competition, sequencing
Medium: yeast
Notes: weak parent motif
Baseline: not given
Direction: higher = stronger binding
Parent: PKN2 docking peptide (human); VSAVQKLDFSDTM
| Substitution | normalised enrichment score |
| --- | --- |
| F9T | 0.0702 |
| D8A | 0.138 |
| S2R | 0.192 |
| L7K | 0.0649 |
| D8V | 0.118 |
| D11C | 0.153 |
| A3L | 0.092 |
| L7Q | 0.0841 |
| M13A | 0.0851 |
| A3W | 0.148 |
| V4F | 0.115 |
| D8S | 0.147 |
| T12K | 0.139 |
| M13P | 0.00917 |
| D11F | 0.0646 |
| L7Y | 0.129 |

Sample 2
Target: CREBL2, bZIP domain (human)
Technique: DHFR protein complementation
Medium: yeast
Notes: single substitutions, most at no-binding floor
Baseline: wild-type JUN-FOS pair
Direction: higher = stronger binding
Parent: JUN, bZIP domain (human); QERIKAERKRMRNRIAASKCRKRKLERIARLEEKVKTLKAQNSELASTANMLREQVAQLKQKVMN; partner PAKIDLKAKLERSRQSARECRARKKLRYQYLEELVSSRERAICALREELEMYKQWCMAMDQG
| Substitution | binding fitness |
| --- | --- |
| L59W | -1.61 natural log |
| L45G | -1.51 natural log |
| A29L | -1.47 natural log |
| A57C | -1.63 natural log |
| T37W | -1.59 natural log |
| Q55R | -1.52 natural log |
| K36A | -1.43 natural log |
| S43G | -1.4 natural log |
| I28W | -1.53 natural log |
| E54N | -1.51 natural log |
| I28L | -1.55 natural log |
| T37I | -1.5 natural log |
| L45W | -1.5 natural log |
| A40W | -1.52 natural log |
| T37K | -1.52 natural log |
| L38G | -1.56 natural log |
| S43F | -1.5 natural log |
| Q55W | -1.59 natural log |
| E44L | -1.53 natural log |
| L31P | -1.39 natural log |
| E33M | -1.56 natural log |
| V56S | -1.55 natural log |
| K36L | -1.32 natural log |
| E54A | -1.56 natural log |

Sample 3
Target: RNA binding protein fox-1 homolog 2, RRM domain, GST-SBP tag (RBFOX2, Homo sapiens, UniProt O43251-10, residues 100-194)
Technique: RNA Bind-n-Seq
Molecule type: RNA
Medium: in vitro
Concentration: 365 nM
Notes: natural RNA segment, single round, ends assumed
Baseline: no-protein control
Direction: higher = stronger binding
Constant ends, left off below: GGGAGUUCUACAGUCCGACGAUC … UGGAAUUCUCGGGUGCCAA
Construct (chain): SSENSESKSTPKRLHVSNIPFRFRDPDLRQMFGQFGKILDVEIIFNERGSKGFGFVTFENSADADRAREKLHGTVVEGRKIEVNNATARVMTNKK
| Sequence | RBNS enrichment (R) |
| --- | --- |
| GGCCCUGCCCAUGCCUGGGCCAGAGUGGCGCUGGGGCCUCGGCUUCCCUUUGGCUCCUGGAAGGCAGGAGGGUCCCCUGCCCUGCCCCAGUCCUGCCCCAGGGAGGCAGG | 0.421 |
| UUGGGAAGGCUUUGCGUCCUGCCUGCAGACUUGCUAGAGCUGUGGUGAUUAACCCUGGCUGUUGAAUCACUCCACUGACCAGUCUCCAGCUUGAGUCGGGGACAUGUUAA | 0.427 |
| UGCUGUCGCAGAUCCUCUCUCUGGCCCUGUUUUGGGGAGGGCCAUUCUUGGUCCUAAGGUUCAUAGUUGAGGCCUUCUGUUCCAGCCUUAUGCUCCCAUCUCAGAGUUCA | 0.238 |
| AAGCUCAUCUGAGUUUGACCAACAUGUUAGGCACUUACAAGAGCUGAAAUUUUUUUUUUAAUCACAGAAAGUUGAACCCUUCAACAAAUGUAAUAUUAAAAUUCCAAGUA | 0.298 |
| AUUGGCCUGGCACAUGCUUUAUGUUAGGCCUCCCGUUGGGAUGGCUGAGAAUCAUGAAAGACAGAUCCUCCGCUAGCCUCUGUGGGUCAAGUUUCUGGACACCAAGUCUC | 0.225 |
| UAAUGCCAAUUUAAGAUCUCUCUUAACUUGUGGCCAAGAAAUUCUAGAUUUUCCAGCUGACUUUGGUAUAAUAUAUAUUUAUCAGGAACUUCUCUCAGCAGAGAGUACCC | 0.309 |
| UAAUCCUUUCUGCCGACCCCUAGUUCCCUCUGCUCAGCCAAGCUUGUUAUCAGCUUUCAGGGCCAUGUUCACAUUAGAAUAAAAGGUAGUAAUUAGAACACUCUGGCUCC | 0.322 |
| GUUCCAUUUCGUGCCGCUUUCCCCCUUCAAGAUGCCAUUUGGAGGGUAGGGGAUCUGCUUCCCACUGUGACUGGGCUAUGGGAUUCUGACUACCUUGCUUACAGAUUCAU | 0.552 |
| CCUGACUAUUUGUAAAUGCUUUAGAGUUUUAAAUUAACACUUCUGUUGCUAAAUACUAUUUAUGUAAGUCUGAAAAGGUUUUUAACCCAUAUAAAACAUUUAAAUAAUGC | 0.556 |
| AAUUUUUAUAUAGCUAAUGUAGGAUAAAGUAGAGUGCAUUAAGACAAUAUUGUAACCCCACUCUAGGCACUUGCCUUUAAACUGUCUCAGCCCUUCAGAAGGGCUCAACU | 0.376 |
| GCCAAAGAAUCUAGGAAAUUAGUUGUAUUUUGUGCAAGCUAAUUUAAAAACAUGAUGGGCUGUUUUAAGACCAGAGUGGAAAUUCAUGAGAGGAACUAUACUACCAAAAG | 0.326 |
| AGAAAUGUGGGGAAGAAAGCAAUUUGAGCAGUAUGUAGCCUACUCACAUGGGCUCUUUUUCAGGUUUGAUGUAAGCAUAGGCUUGCAUAUUCCCAAGGUACAUACUUUGA | 0.485 |

Sample 4
Target: ABI1, truncated, D143A, DHFR fusion (Arabidopsis thaliana)
Technique: DHFR PCA, deep sequencing
Medium: yeast
Notes: methotrexate growth selection, single substitutions
With: (+)-ABA 2500 µM
Baseline: wild-type fitted maximum
Direction: higher = stronger binding
Parent: PYL1, truncated, DHFR fusion (Arabidopsis thaliana); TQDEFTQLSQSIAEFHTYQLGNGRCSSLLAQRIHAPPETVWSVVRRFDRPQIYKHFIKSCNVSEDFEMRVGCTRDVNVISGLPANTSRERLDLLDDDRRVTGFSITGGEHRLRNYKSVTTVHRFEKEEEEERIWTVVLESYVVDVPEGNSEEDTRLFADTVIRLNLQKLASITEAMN
| Substitution | relative binding score [%] |
| --- | --- |
| Q31I | 74.4 |
| F15I | 85 |
| G81S | 87 |
| S26R | 93 |
| I33V | 97.6 |
| E14A | 82.3 |
| L156N | 92 |
| Q19W | 91.2 |
| W134G | 100 |
| S171L | 92.7 |
| E38D | 98.4 |
| Y53P | 33.8 |
| S11H | 85.2 |
| T120Q | 83.9 |
| F103R | 23.1 |
| T135L | 11.6 |
| R123H | 101 |
| E109W | 87.5 |
| H122Q | 79.5 |
| H55M | 97.5 |

Sample 5
Target: Prothrombin, mature alpha-thrombin (F2, Homo sapiens, UniProt P00734)
Technique: aptamer microarray, sandwich
Molecule type: DNA with 2'F-ANA
Medium: in vitro
Concentration: 200 nM
Notes: whole 15-mer aptamer, many near background
With: Cy3 exosite-II aptamer, 400 nM
Direction: higher = stronger binding
Sequence: GGTTGGTGTGGTTGG
| Modification | mean fluorescence intensity [a.u.] |
| --- | --- |
| 2'F-ANA at 1 2 4 6 7 9 10 11 13 | 62.7 |
| 2'F-ANA at 1 2 3 8 10 11 12 13 14 | 94 |
| 2'F-ANA at 3 5 7 9 10 | 59.2 |
| 2'F-ANA at 1 2 4 5 6 7 8 9 11 12 14 | 48.5 |
| 2'F-ANA at 1 2 4 6 7 8 12 15 | 279 |
| 2'F-ANA at 2 3 4 5 6 9 11 13 | 61.9 |
| 2'F-ANA at 1 4 6 7 11 15 | 87.6 |
| 2'F-ANA at 3 4 6 8 12 14 | 353 |
| 2'F-ANA at 1 2 4 5 6 8 9 11 13 15 | 52 |
| 2'F-ANA at 3 4 7 8 9 12 | 1220 |
| 2'F-ANA at 3 5 7 8 9 12 13 14 15 | 65 |
| 2'F-ANA at 2 4 10 13 14 | 70.1 |
| 2'F-ANA at 1 5 6 8 9 11 13 | 57.9 |
| 2'F-ANA at 1 2 3 7 8 10 12 15 | 94.2 |
| 2'F-ANA at 1 2 6 7 8 10 13 15 | 51 |
| 2'F-ANA at 1 2 3 6 8 11 13 | 165 |
| 2'F-ANA at 2 6 8 10 12 13 | 137 |
| 2'F-ANA at 2 4 5 6 7 8 9 13 14 15 | 49.4 |
| 2'F-ANA at 1 2 4 8 10 11 12 13 14 | 45.7 |
| 2'F-ANA at 1 2 3 8 9 10 13 | 64.6 |
| 2'F-ANA at 2 3 4 6 13 14 | 225 |
| 2'F-ANA at 1 4 7 8 9 13 15 | 118 |
| 2'F-ANA at 1 3 4 7 8 10 12 14 15 | 51.7 |
| 2'F-ANA at 2 5 7 8 9 10 11 13 14 | 51.9 |
| 2'F-ANA at 3 5 8 12 13 14 15 | 66.3 |

Sample 6
Target: Histone acetyltransferase KAT6A, winged helix 1, GST fusion (KAT6A, Homo sapiens, UniProt Q92794, residues 1-85)
Technique: protein binding microarray
Molecule type: double-stranded DNA, one strand shown
Medium: in vitro
Concentration: not given
Notes: 8-mer, flanks averaged, mean of 2 arrays, mostly near background
Baseline: not given
Direction: higher = stronger binding
Construct (chain): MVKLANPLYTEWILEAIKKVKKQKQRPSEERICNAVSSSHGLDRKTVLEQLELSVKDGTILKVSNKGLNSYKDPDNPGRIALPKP
| Sequence | E-score |
| --- | --- |
| AGTAAGCC | 0.12 |
| CGGATCTA | 0.0572 |
| CCCTATTC | -0.0619 |
| AAGTGAAA | -0.0696 |
| AGGAGAAG | -0.268 |
| AGTTTGTA | -0.0867 |
| AGTCTATG | -0.193 |
| ATTGAAAG | -0.165 |
| CATACATC | -0.0795 |
| GAGTTCAA | -0.19 |
| AACATGGT | -0.17 |
| CATGAGGC | 0.0524 |
| GCGACTGA | 0.103 |
| ACAGGCAC | -0.0924 |
| AATCAGAC | -0.0795 |
| CGAGGGCG | 0.331 |
| ACGTGTAA | -0.0677 |
| GTCACAAA | -0.159 |
| ACGCTGAC | 0.00617 |
| CTGATTCC | -0.0669 |
| AAAAGGAA | -0.232 |
| CACCATGG | -0.153 |
| CTCTAAGC | 0.0978 |
| GCAGTCCA | -0.0154 |
| GAAGCCTA | 0.0423 |

Some of these lines once more (sample 6):
| Sequence | E-score |
| --- | --- |
| CATGAGGC | 0.0524 |
| AAGTGAAA | -0.0696 |
| ACGTGTAA | -0.0677 |
| CGAGGGCG | 0.331 |
| GAGTTCAA | -0.19 |
| AGTAAGCC | 0.12 |
| CTCTAAGC | 0.0978 |
| CACCATGG | -0.153 |
